Measured values pooled from the literature.
Numbered parts are unrelated; each lists some results of a single study. Substitutions count along the parent as printed.

Series 1
Target: Interferon regulatory factor 5, full length, phosphomimetic (IRF5, Homo sapiens, UniProt Q13568-2, residues 1-514, S451D/S453D/S456D/S462D)
Technique: protein-binding microarray
Form: double-stranded DNA, one strand shown
Medium: in vitro
Tested at: 940 nM top
Setting: 60-bp whole probe
Together with: salmon DNA 0.4 mg/ml
Baseline: random background probes
Direction: higher = stronger binding
All sequences stand within: GCCTAGCAC … GTCTTGATTCGCTTGACGCTGCTG
Strand	fitted relative affinity [z-score]
TGCTCCTTCTGACATCAACCCGTGCTA	0.695
TTAGGTATCGACCTTCGGTTAGTGCTA	4.28
GACGATTTCGGTCTCGGGACGTGCTAG	2.12
TAGCATGTAATTTGTTTGCAGTGCTAG	-0.167
TTAGGACTGGGGTATCGGTTGGTGCTA	2.32
CGCGCTTCTCGGCGGCGAAGGTGCTAG	-0.0334
TCAGGTTTCCTTATCCTTTAGTGCTAG	1.72
GACGGACTGTTTCTCCTGACGTGCTAG	0.549
GACGATTTCAGTCTCGACACGTGCTAG	1.69
GACGGTCTCTTTATCCTGACGTGCTAG	0.978
GACGATTTCGGGTTTCGATACGTGCTA	5.15
TCATACCTCATCTTCCTCACTGTGCTA	1.42
GACGGTATCCTACTGCTGGCGTGCTAG	0.0814
TCAGATTTCAGTCTCGATTAGTGCTAG	4.26
TCAGGCTTTCCTTTATGACTGTGCTAG	0.0971
TTAGGTAGCGGTCTCGGTTAGTGCTAG	1.99
TTAGGTTTCGGGACTGGGATAGTGCTA	7.27
CAAAACATCATTGTCATATAGTGCTAG	0.0738
TCAGACTTGATTTTGGTACTGTGCTAG	-0.275
TTAGGTTTCGACTTTCTGTTAGTGCTA	8.99
GACGGTATCGATTATCGGGACGTGCTA	7.85
ATTCATATATATATGAAAAAGTGCTAG	-0.0169
CACGGTCTCCTTTTCCTGACGTGCTAG	0.695

Series 2
Target: CCNB3, cyclin fold, Cln2 fusion (human)
Technique: yeast growth competition, sequencing
Medium: yeast
Setting: weak parent motif
Baseline: not given
Direction: higher = stronger binding
Starting sequence: CENPC docking peptide (human); VKTKKRLNFDDKV
Variant	normalised enrichment score
VKTKKRLNFDDKA [V13A]	0.091
VKTKKRLNFDDAV [K12A]	0.542
VKAKKRLNFDDKV [T3A]	1.01
VKTKRRLNLDDKV [K5R F9L]	0.144
VKTKKRLNADDKV [F9A]	0.187
VKTKKRANFDDKV [L7A]	0.21
AKTKKRLNFDDKV [V1A]	0.332
VKTKKRLNFDAKV [D11A]	0.572
VKTKRRLNFDDKV [K5R]	1.12
VKTKARANFDDKV [K5A L7A]	0.18

Series 3
Target: RING finger protein unkempt homolog, zinc fingers 1-6, GST-SBP tag (UNK, Homo sapiens, UniProt Q9C0B0, residues 30-357)
Chain of UniProt Q9C0B0 (30-357, looked up): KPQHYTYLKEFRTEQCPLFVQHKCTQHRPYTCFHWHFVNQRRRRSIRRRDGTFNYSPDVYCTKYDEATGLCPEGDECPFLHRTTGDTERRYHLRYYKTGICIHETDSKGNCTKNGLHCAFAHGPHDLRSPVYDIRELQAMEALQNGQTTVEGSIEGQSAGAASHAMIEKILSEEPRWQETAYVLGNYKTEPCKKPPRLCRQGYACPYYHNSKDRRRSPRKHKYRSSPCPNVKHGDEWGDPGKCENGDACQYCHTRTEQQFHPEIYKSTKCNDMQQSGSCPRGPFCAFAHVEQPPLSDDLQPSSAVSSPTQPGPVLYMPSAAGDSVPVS
Technique: RNA Bind-n-Seq
Form: RNA
Medium: in vitro
Tested at: not given
Setting: RNA with constant flanks, human and mouse sites, ends assumed
Baseline: input RNA pool
Direction: higher = stronger binding
All sequences stand within: GGGAGUUCUACAGUCCGACGAUC … CAACAGAGGAUUGAGCAUCA
Strand	bound/input enrichment [ratio]
GGAGGAGAGGACAAAUUAAAGAUGAUUCGGGAGUACCGGCAAAUGGUUGAAACUGAGCUCAAGUUAAUCUGUUGUGACAUUCUGGAUGUACUGGACAAACACCUCAUUCCAGCAGCUAAC	0.696
CCCAUGCCGAGGCUCACCUUCCAGGCGGGGGACCCCUACUACAUCAGCAAGCGCAAGCGGGACGAGUGGCUGGCACGCUGGAAAAGGGAGGCUGAGAAGAAAGCCAAGGUCAUUGCAGGA	0.161
AAUCAGUUUGAGACAGAAUUAUGAAUAGAGAUCUAUCAGUAACUUUUGCAUUUCACACCAUAGCUAGAGUUUGGCUCACCAAUAACUUGUAUAUAUUUUGAAUGGGAAACACAUGGGUGC	4.11
CCUAGGCUAAAUGAGAAUGAAAGCGACUUCAGGUCAGGUGGCUGUGGGAUUUUUUUUUUUUGGUCCUUCUUUCCUCUUAACGUAAAUCCACCACCAAAAUUAUUAAUCCUCUUGAGAGAA	0.729
AAGAAUGAGAUGGAGAUACAAAUGAAAUCAAAAAAGCUUCCAAUUACGCGAAAGUUUUAUGCCUUUUAUCAUGCACCAAUUGUAAAAUUCUGGUUUAACACGUUGGCAUAUUUAGGAUUU	0.598
GGUUCCUUUGGGAGACUUCGACUUGUUGGCGACCUGAUGGCCAAAAGAAAGGAAGAAAAUUUUUCCUCUCCUAAAAAUGCCAAAAGGCCAAGACAAGAAGAAUUGGAGGAUUUUGAUAAA	0.171
ACCUCCUCGUCCAGCAGCAGCGGCAGCAGCAGCGGCAGCAGCGGCGAGGACGCCGACGACCUGAUGUUCGACCUGAGCUUGAAUUUCUCUCAAAGCGCGCACAGCGCCAGCGAGCAGCAG	0.118
GACCUUGCAAAAGUGCUAUUGAAAAGAACAGUCCAGACUAUUGAGGCAUGCAUUGCUAAUUUUUUCAAUCAAGUCCUGGUGCUGGGAAGAUCAUCAGUAAGUGAUUUGUCAGAACAUGUA	0.212
AACUAUUUUUCUUUGCUCAUGGGCUGGAUGGGAAUUACCCCUCCUCCAGUGCAAUGUCAUCAUAGACUGUCCAUGACAGAUGAUAGCAAAAAGCAGGAUCUUAGUUCAUCUUUAACAGAU	0.231
UAAAUACAUAUAUAUUUGCUUGACGAAUCACCAAGCACAUUGGUGAGAGGGUCUUUUCCUAUAGAAUUCACUCAUCCGUUUUGUUGUGUUGUCCUGAGCUUCCCAAUGUUGAGGUCUCUA	0.42
AAGCCUUAAGCACAAUUAAUUAAAAGUGAAACGUAAUUGUACAAGCAGUUAAUCACCCACCAUAGGGCAUGAUUAACAAAGCAACCUUUCCCUUCCCCCGAGUGAUUUUGCGAAACCCCC	0.452

Series 4
Target: Sal-like protein 4, full length isoform B (SALL4, Homo sapiens, UniProt Q9UJQ4-2, residues 1-616)
Technique: universal PBM
Form: double-stranded DNA, one strand shown
Medium: in vitro
Tested at: not given
Setting: 8-mer, flanks averaged, mean of replicates
Direction: higher = stronger binding
Construct (chain): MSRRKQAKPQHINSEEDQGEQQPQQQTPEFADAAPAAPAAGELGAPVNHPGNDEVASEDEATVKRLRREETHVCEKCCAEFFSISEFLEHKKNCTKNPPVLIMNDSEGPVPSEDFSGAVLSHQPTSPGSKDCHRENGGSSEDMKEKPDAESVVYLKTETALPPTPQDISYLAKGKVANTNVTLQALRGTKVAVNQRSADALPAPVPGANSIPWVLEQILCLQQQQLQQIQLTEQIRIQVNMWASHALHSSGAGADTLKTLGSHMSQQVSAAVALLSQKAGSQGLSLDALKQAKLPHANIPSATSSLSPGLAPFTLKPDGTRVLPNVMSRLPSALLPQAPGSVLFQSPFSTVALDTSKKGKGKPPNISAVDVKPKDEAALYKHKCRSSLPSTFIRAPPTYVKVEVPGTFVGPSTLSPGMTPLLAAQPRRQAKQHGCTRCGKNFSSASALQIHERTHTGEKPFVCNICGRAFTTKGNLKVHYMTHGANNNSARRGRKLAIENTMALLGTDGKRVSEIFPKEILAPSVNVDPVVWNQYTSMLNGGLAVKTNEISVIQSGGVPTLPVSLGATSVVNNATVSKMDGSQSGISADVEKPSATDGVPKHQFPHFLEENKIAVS
Strand	E-score
CCGGGGTA	-0.173
AGCCAGAA	-0.144
ATAACGGC	0.11
AGGCCGCC	-0.412
GCGTGAAA	0.102
CACCGTCC	-0.244
AGACACGC	-0.175
AAAGTAAA	0.285
ACTTTCGA	0.132
AGAATTGG	0.0371
GAAGAAAA	0.198
GAGCCGCC	-0.338
CTGACACA	-0.0269
ATCTGCGC	-0.156
ACATGGCG	-0.071
GGCGGCAC	-0.212
CCGTTGAA	0.0539
ACGCGTGC	-0.0686
AGCCCAGC	-0.362
ATTGCGAC	0.0425

Series 5
Target: Histone acetyltransferase KAT6A, winged helix 2, GST fusion (KAT6A, Homo sapiens, UniProt Q92794, residues 85-181)
Technique: protein binding microarray
Form: double-stranded DNA, one strand shown
Medium: in vitro
Tested at: not given
Setting: 8-mer, flanks averaged, mean of 2 arrays, mostly near background
Baseline: not given
Direction: higher = stronger binding
Target sequence (chain): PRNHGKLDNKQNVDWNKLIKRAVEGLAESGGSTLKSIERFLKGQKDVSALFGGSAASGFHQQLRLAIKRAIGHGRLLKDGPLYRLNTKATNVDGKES
Strand	E-score
AGAAGGGC	0.167
CTCAAGAA	-0.138
CGTAGCCA	-0.0539
GTCCGCCA	0.0843
AAGCTCCT	-0.124
CGTGAAAC	0.00628
AGCAAGAT	0.0844
ACATCCAA	0.0517
CGCACATA	-0.151
AGGGTCTA	-0.17
CAGGCAGA	0.0356
GCAAGCGC	0.119
ATTATACG	0.0708
CCACCAAA	0.145
CCGCATTA	-0.0277
CTCTCACA	-0.0381
GGCCGTGA	0.00632
AGCGATAT	0.0732
GAGCTATA	-0.157
CAGTGTCC	0.0519
AAATCATG	-0.0647
CTCGCGGC	0.183

Series 6
Target: RNA binding protein fox-1 homolog 2, RRM domain, GST-SBP tag (RBFOX2, Homo sapiens, UniProt O43251-10, residues 100-194)
Technique: RNA Bind-n-Seq
Form: RNA
Medium: in vitro
Tested at: 365 nM
Setting: natural RNA segment, single round, ends assumed
Baseline: no-protein control
Direction: higher = stronger binding
All sequences stand within: GGGAGUUCUACAGUCCGACGAUC … UGGAAUUCUCGGGUGCCAA
Residues (chain): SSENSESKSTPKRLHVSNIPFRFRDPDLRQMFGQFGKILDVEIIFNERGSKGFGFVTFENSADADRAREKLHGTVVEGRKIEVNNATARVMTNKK
Strand	RBNS enrichment (R)
AAAAUACUGAACAUAGCUGUAUAGGUUUGUGAUUAUUAGAGAAUAUGUUAAUAAAACUUCUUGUAACGGCUAACUGCCACCUAAAAUAUGCUGGGUUUUCUGUUGUUUGA	0.434
UUUAAAAUUUGAGUAUUUUGGAUAUCAGUGUUCCUCAUGAAGAUAUACAUGGAUAUUCAAUUUUGAUGGCUUCCAGAUUUGUAAGAUUGUAUGUUGUAUAUACCAUUCUA	0.44
CUCCACCGAAGUGCUGGGGAGUUGCAGGACUUCAUUCAAAUAGGAAUAUCAGUCCAAGCAAGCUGAUACGUGAGUGGCAGUGGAUAGGAUUUGCUUAAUGGCUGAUGUAA	0.446
UAUAAAGGGCUUUUCUGAAAUUUAAACAGCUUGGUGAUGCAUCCUGAUAUUAUAAGCUUAAAACUAUCUUGAGGGGGAAAUGACUUCUUUUCUCCUUCUGUCCCUUUUCU	0.712
CACACCUGUAGUCCCAACUAUUCGGCAGGCUGAGGCAGUAGAAUCGCUUGAACCUGGGAGGCGGAGAUUGCAGUGAACCAAGAUCGGGCCACUGCACUCCAGCUUGGGUG	0.355
AUGGUUCUGAUGAUGAUUAUCCAACAAACAUCUGGCCCUCUCUACAUCUCUUCCCUCCAUCUCCUUGUACCCUCUGGCUUACUGUCCUCUCUCUGGCGCACUUUCCUGAA	0.762
UGUACCCCACCACCCCAUUACCACAGCUGCCUUUGUGUGUUUGUGUCAAUAAAAAGCCAAACCCUGGUCCUGCUUGUUGCCUCUGAGAGUGGAGGGAAGGUGAGCUCCUG	0.363
AAGCCUGAAGAGAAGUGAUCUUAGAGAAAGCAGAGAACAGAAUGGACUGGAUAGACAUCUUGACUCUAUUCAGCCCGUAGUCUGUGAUCUGGAGAGUCCAGUUAAGGUAA	0.337
GCGUCAAGAGCAGUUGACUCACUGAUGAAGGCCCUGGUGAGGAGAAAGCACUCUGUUCUUCGCCUACUCUGUAAUCGUUUUGUCAUAAUGAGCCAUGAAAAAAGUAAUGA	1.4
ACCCUUGAAGCGUCCAACUCAUGUGCAUGAUCAUGCAAGCUGUUUUCAUGGCUCACCCCUCUGUGUCCAGCAUCUAACCUUUUACUUCUGUGUAGGAAAUAAUUUAAUUA	4.16
UAUACCUCACGUACUGUGUACUUUGUACAUAUAUUUUACCUUUUAUACCUAUGUUCGAUUUUGUUUUGUUUUGUUUUGUUCUGGCUUUGAGGCUUGUUUUGUUGUCUGUG	15.9
GAAGGAUGAAGGGCCCGAGAACAUGGCCUAAGGGCCACAUCCCACUGCCACCCUUGACGCCCUGCUCUGGAUAACAAGACUUUGACUUGGGGAGACCUCUACUGCCUUGG	0.345
